{"data": "Results pooled from the literature", "note": "Values joined by “and” are separate records of one study, mostly repeats; a detail may differ. ± marks the error that the study gave.", "sequence of UniProt P35579 (whole entry, looked up)": "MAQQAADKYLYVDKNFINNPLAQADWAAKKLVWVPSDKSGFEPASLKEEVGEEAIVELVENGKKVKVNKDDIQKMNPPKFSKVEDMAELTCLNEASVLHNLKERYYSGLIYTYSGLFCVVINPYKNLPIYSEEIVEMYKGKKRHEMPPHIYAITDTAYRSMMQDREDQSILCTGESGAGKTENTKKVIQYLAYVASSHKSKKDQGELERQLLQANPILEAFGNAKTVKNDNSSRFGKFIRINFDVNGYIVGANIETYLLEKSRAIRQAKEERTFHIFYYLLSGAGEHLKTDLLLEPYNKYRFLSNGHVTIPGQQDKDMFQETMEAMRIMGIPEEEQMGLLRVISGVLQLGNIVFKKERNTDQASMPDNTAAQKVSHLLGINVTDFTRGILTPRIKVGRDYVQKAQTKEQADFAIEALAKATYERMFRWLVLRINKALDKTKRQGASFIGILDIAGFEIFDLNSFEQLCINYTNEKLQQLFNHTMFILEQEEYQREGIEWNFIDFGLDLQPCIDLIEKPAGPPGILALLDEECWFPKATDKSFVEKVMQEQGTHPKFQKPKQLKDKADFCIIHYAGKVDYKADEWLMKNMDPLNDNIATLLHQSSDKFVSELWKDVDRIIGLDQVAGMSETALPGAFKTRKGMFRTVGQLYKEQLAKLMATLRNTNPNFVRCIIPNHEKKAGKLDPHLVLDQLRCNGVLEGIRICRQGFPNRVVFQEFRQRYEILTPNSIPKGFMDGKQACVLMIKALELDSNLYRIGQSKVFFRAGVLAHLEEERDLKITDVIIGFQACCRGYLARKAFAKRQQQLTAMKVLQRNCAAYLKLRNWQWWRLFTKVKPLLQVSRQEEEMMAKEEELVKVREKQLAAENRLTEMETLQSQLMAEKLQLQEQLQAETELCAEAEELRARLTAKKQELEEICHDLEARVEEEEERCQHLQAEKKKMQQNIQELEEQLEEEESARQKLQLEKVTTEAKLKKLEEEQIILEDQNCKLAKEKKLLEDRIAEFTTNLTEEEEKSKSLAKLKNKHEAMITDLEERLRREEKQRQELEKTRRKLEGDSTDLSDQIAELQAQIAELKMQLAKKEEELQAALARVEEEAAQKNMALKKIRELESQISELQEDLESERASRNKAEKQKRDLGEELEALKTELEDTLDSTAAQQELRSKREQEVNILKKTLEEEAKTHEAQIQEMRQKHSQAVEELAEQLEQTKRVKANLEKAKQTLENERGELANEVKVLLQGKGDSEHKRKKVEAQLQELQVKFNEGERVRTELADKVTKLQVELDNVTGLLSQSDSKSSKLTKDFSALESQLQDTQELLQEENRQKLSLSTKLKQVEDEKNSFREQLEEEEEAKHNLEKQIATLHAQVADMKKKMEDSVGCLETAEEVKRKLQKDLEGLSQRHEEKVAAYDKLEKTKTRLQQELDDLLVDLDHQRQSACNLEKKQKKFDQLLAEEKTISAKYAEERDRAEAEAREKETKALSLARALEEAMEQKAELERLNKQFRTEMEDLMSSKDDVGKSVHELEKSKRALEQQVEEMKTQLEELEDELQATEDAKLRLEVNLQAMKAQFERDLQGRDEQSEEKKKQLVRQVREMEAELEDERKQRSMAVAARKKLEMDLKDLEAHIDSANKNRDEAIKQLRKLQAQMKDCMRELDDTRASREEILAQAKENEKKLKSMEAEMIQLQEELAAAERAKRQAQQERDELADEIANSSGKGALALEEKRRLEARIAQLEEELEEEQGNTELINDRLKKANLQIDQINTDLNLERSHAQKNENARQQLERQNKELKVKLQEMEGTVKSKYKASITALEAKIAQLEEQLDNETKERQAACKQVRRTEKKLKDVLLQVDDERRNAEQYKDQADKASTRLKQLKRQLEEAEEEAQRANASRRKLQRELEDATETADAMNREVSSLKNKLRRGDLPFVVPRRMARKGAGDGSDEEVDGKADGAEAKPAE"}
{"SMILES": "N#C/N=C1\\SCCN1Cc1ccc(Cl)nc1", "test system": "soil", "setting": "28 days, nominal 10", "endpoint": "recovery", "value": "1.9%"}
{"SMILES": "COC[C@@H](CC(C)C)NC(=O)c1ccc(C)c(C)c1", "test system": "Hsd:ICR (CD-1) mouse, male, bone marrow", "setting": "oral, 1352 mg/kg, 24 h", "endpoint": "micronucleated PCE per 1000 PCE", "value": 0}
{"SMILES": "C[C@H]1CN(c2n[nH]c3nc(N[C@H]4CC[C@H](NS(=O)(=O)CCC(F)(F)F)CC4)ncc23)CCO1", "target or system": "Myosin-9 (MYH9, Homo sapiens, UniProt P35579)", "assay": "inhibitor, Kinobeads competition profiling", "setting": "0.16 µM", "scale": "baseline: vehicle", "endpoint": "relative abundance", "value": 1.07}
{"SMILES": "CN[C@@H](C)C(=O)N[C@H]1CN(S(=O)(=O)c2cccc(S(=O)(=O)N3CC[C@H]4CC[C@@H](C(=O)NC(c5ccccc5)c5ccccc5)N4C(=O)[C@@H](NC(=O)[C@H](C)NC)C3)c2)CC[C@H]2CC[C@@H](C(=O)NC(c3ccccc3)c3ccccc3)N2C1=O", "test system": "patients with advanced solid tumours", "setting": "7 mg, phase I monotherapy", "endpoint": "treatment-related facial nerve disorder incidence", "value": "0%"}
{"SMILES": "CC(=O)c1c(C)c2cnc(Nc3ccc(C4CCN(CCS(C)(=O)=O)CC4)cn3)nc2n(C2CCCC2)c1=O", "test system": "human, plasma", "setting": "oral, 75 mg twice daily, day 1, single dose, with: letrozole", "endpoint": "clearance", "value": "1890 mL/min"}
{"SMILES": "O=C(c1ccc(F)c(F)c1Nc1ccc(I)cc1F)N1CC(O)([C@@H]2CCCCN2)C1", "test system": "human", "setting": "oral, 1.33 mg/kg", "endpoint": "duration of first chorioretinopathy DLT", "value": "8 days"}
{"SMILES": "CN1CC[C@@H](c2c(O)cc(O)c3c(=O)cc(-c4ccc(C(F)(F)F)cc4Cl)oc23)[C@@H]1CO", "assay": "measured: respiratory failure", "test system": "B-cell malignancies", "setting": "oral, 150 mg, grade 3 to 4, intermittent dosing", "endpoint": "patients with adverse event", "value": "0%"}
{"SMILES": "O=C(NCCN1CCCCC1)c1ccc(-c2ccc(N3CCSCC3)nc2)cc1", "target or system": "Vero-E6", "assay": "CellTiter-Glo ATP", "setting": "concentration not given, 72 h, retest 8-point duplicates", "scale": "baseline: DMSO 0%, hyamine -100%, more negative, more toxic", "endpoint": "cytotoxicity efficacy", "value": "0%"}
{"SMILES": "N[C@@H]1c2ccccc2OC12CCN(c1cnc3c(N4CCCc5ncccc54)n[nH]c3n1)CC2", "test system": "advanced metastatic solid tumour patients", "setting": "oral, 50 mg once daily", "endpoint": "TEAE leading to withdrawal", "value": "33.3%"}
{"SMILES": "CCc1ccc(CC/C=C/c2ccc3c(c2)C(=O)CC3)cc1", "test system": "Sprague-Dawley rat, male, serum", "setting": "oral, 120 mg/kg/day, 14 days", "endpoint": "sodium", "value": "143 mM"}
{"SMILES": "C[C@@H]1OC(=O)NN=C1c1ccc(-c2ccc(F)cc2)c(C(F)(F)F)c1", "assay": "phase I trial, measured: Nausea worst grade 1", "test system": "human patients", "setting": "5 mg once daily", "endpoint": "patients with adverse event", "value": "0%"}
{"SMILES": "C[C@]1(CO)Cc2ncn(-c3ccc(C#N)c(Cl)c3)c2C(=O)O1", "test system": "human", "setting": "20 mg single dose", "endpoint": "subjects with any TEAE", "value": "57.1%"}
{"SMILES": "CC(C)=CC1C(C(=O)OC(C#N)c2cccc(Oc3ccccc3)c2)C1(C)C (stereo not drawn)", "assay": "IVIVE scaling", "test system": "human adult", "endpoint": "hepatic intrinsic clearance", "value": "9710 L/h/kg liver"}
{"SMILES": "COc1ncccc1-c1cnn2ccc(N3CCN(C(=O)OC(C)C)CC3)nc12", "test system": "mouse open field, plasma", "setting": "oral, 10 mg/kg, 60 min", "endpoint": "free concentration", "value": "76 nM"}
{"SMILES": "COc1cc(C2C3=C(COC3=O)N(CCO)c3cc4c(cc32)CCC4)cc(OC)c1OC (stereo not drawn)", "test system": "female C57BL/6 mice", "setting": "intraperitoneal, 400 mg/kg, 0 h, single dose, mean", "endpoint": "body weight", "value": "23.3 g"}
{"SMILES": "O=C(Oc1ccc(Cl)cc1)[c-]1cccc1.[Fe+2].c1cc[cH-]c1", "assay": "cyclic voltammetry", "test system": "methanol/DMEM 1:1 with TBAPF6", "setting": "concentration not given, Pt disk electrode, Ag/AgCl reference, with: scan rate 100 mV/s", "endpoint": "reduction potential", "value": "476 mV"}
{"SMILES": "C[C@@H]1NC(=O)[C@H](CCCCNC(=O)CO/N=C/C(=O)NCCCC[C@@H]2NC(=O)[C@@H](Cc3ccccc3)NC(=O)[C@H](CC(=O)O)NC(=O)CNC(=O)[C@H](CCCNC(=N)N)NC2=O)NC(=O)CNC(=O)[C@@H]2CCCN2C(=O)[C@H](CCCCNC(=O)CO/N=C/C(=O)NCCCC[C@@H]2NC(=O)[C@@H](Cc3ccccc3)NC(=O)[C@H](CC(=O)O)NC(=O)CNC(=O)[C@H](CCCNC(=N)N)NC2=O)NC(=O)[C@H](CCCCNC(=O)[C@H](CCCCN)NC(=O)[C@H](Cc2ccccc2)NC(=O)CNC(=O)CN2CCCNCCNCCCNCC2)NC(=O)[C@H](CCCCNC(=O)CO/N=C/C(=O)NCCCC[C@@H]2NC(=O)[C@@H](Cc3ccccc3)NC(=O)[C@H](CC(=O)O)NC(=O)CNC(=O)[C@H](CCCNC(=N)N)NC2=O)NC(=O)CNC(=O)[C@@H]2CCCN2C(=O)[C@H](CCCCNC(=O)CO/N=C/C(=O)NCCCC[C@@H]2NC(=O)[C@@H](Cc3ccccc3)NC(=O)[C@H](CC(=O)O)NC(=O)CNC(=O)[C@H](CCCNC(=N)N)NC2=O)NC1=O [copper-64 labelled]", "test system": "normal mice, pancreas", "setting": "intravenous, 0.74 MBq, 24 h post-injection", "endpoint": "tissue uptake", "value": "0.47 ± 0.1 %ID/g"}
{"SMILES": "COc1cccc(Oc2ccccc2NC(=O)CNC(=O)c2cccc3ccccc23)c1", "test system": "esterase-deficient SCID mice, male", "setting": "oral, 15 mg/kg/day, 14 days, toxicity study", "endpoint": "bicarbonate (total CO2)", "value": "20 mmol/L and 19 mmol/L"}
{"SMILES": "CC(C)c1cccc(N=Nc2ccc3[nH]cc(CCN(C)C)c3c2)c1", "assay": "light irradiation", "test system": "solution", "setting": "with: light 530 nm", "endpoint": "trans isomer at photostationary state", "value": "83%"}
{"SMILES": "Cc1ncsc1CCCl", "test system": "male rat liver microsomes", "setting": "50 µM, 3 h, with: DHA-Na 5 mg/L", "endpoint": "inhibition", "value": "1.6 ± 0.21%"}
{"SMILES": "[O-][S+]1CCc2nc(N3CCC(c4ncc(Cl)cn4)CC3)nc(NC3(CO)CCC3)c21 (stereo not drawn)", "assay": "measured: mean", "test system": "idiopathic pulmonary fibrosis patients, blood", "setting": "18 mg twice daily, at last treatment", "endpoint": "fibrinogen", "value": "4.2 g/L"}
{"SMILES": "Clc1ccc(-c2ccccc2)cc1", "test system": "rat Sprague-Dawley female, serum", "setting": "inhalation, 35 µg/rat, 24 h", "endpoint": "serum CO2", "value": "25 ± 1 mmol/L"}
{"SMILES": "COc1ccccc1-c1ccc(CN2CCC(NC(=O)Cc3ccc(F)cc3)C2)cc1 (stereo not drawn)", "target or system": "Vero-E6", "assay": "CellTiter-Glo ATP", "setting": "72 h, first round 5-point", "scale": "baseline: DMSO 0%, hyamine -100%, more negative, more toxic", "endpoint": "maximum response", "value": "-0.987%"}
{"SMILES": "O=S(=O)(Nc1ccccc1)c1ccc(NC(=S)Nc2ccccc2)cc1", "assay": "measured: BUN", "test system": "female mouse, blood", "setting": "oral, 80 mg/kg daily, 14 days", "endpoint": "blood chemistry level", "value": "16.5 mg/dL"}
{"SMILES": "CC(C)C[C@H](NC(=O)[C@H](CCCCN)NC(=O)OCC1c2ccccc2-c2ccccc21)C(=O)N[C@H](C(=O)N[C@@H](Cc1ccccc1)C(=O)N[C@@H](Cc1ccccc1)C(=O)N[C@@H](CCCCN)C(=O)NCC(=O)N[C@@H](Cc1ccccc1)C(=O)N[C@@H](C)C(=O)N[C@@H](Cc1c[nH]c2ccccc12)C(=O)N[C@@H](CC(N)=O)C(=O)N[C@H](C(=O)N[C@H]1CSSC[C@@H](C(=O)N[C@@H](Cc2c[nH]cn2)C(=O)N[C@@H](CCCNC(=N)N)C(=O)N[C@@H](CCCNC(=N)N)C(=O)N[C@@H](C)C(=O)N[C@@H](CC(N)=O)C(N)=O)NC(=O)[C@H](C(C)C)NC(=O)[C@H](CCCNC(=N)N)NC(=O)[C@H](C(C)C)NC(=O)CNC(=O)[C@H](CC(N)=O)NC(=O)[C@H](CCCNC(=N)N)NC(=O)[C@H](Cc2ccc(O)cc2)NC(=O)[C@H](C(C)C)NC1=O)C(C)C)C(C)C", "assay": "circular dichroism, measured: β-Turn", "test system": "PBS", "setting": "80 µM, pH 7.4, with: LTA 1 µM", "endpoint": "secondary structure content", "value": "17.5%"}
{"SMILES": "CO[C@H]1C[C@@H]2CC[C@@H](C)[C@@](O)(O2)C(=O)C(=O)N2CCCC[C@H]2C(=O)O[C@H]([C@H](C)C[C@@H]2CC[C@@H](OC(=O)NCCOCCOCCOCCOCCOCCOCCOCCOCCC(=O)N3CCc4cc(Cn5nc(-c6ccc7oc(N)nc7c6)c6c(N)ncnc65)ccc4C3)[C@H](OC)C2)C[C@@H](O)[C@H](C)/C=C(\\C)[C@@H](O)[C@@H](OC)C(=O)[C@H](C)C[C@H](C)/C=C/C=C/C=C/1C", "assay": "phase 1 dose escalation, measured: fatigue", "test system": "advanced solid tumour patients", "setting": "intravenous, 12 mg weekly, any grade", "endpoint": "dose-reducing adverse events", "value": "0%"}
{"SMILES": "COc1ccc2nc3cc(Cl)ccc3c(Nc3cc(CN4CCCC4)c(O)c(CN4CCCC4)c3)c2n1", "test system": "mouse, blood", "setting": "oral, 57 mg/kg, tolerability, mean", "endpoint": "eosinophils", "value": "4.89%"}
{"SMILES": "COc1ccc(C[C@@H]2NC(=O)[C@H]([C@@H](C)O)NC(=O)[C@@H]3[C@@H]4CCN3C(=O)[C@@H]3Cc5cn(c6ccc(F)cc56)CCCCCCN(Cc5ccc(cc5)CCNC(=O)[C@]5(C)CCCN5C2=O)C(=O)CCC(=O)N[C@@H](C)C(=O)N[C@H](CNC(=O)CCCCC[N+](C)(C)C)C(=O)N[C@@H](Cc2cccc(c2)CNC(=O)CO4)C(=O)N3)cc1", "test system": "human, plasma", "setting": "oral, 200 mg, with: Labrasol 1800 mg", "endpoint": "AUC(0-t)", "value": "1.16 µM·h"}
{"SMILES": "COc1cc2c(Oc3ccc4[nH]c(C)cc4c3F)ccnc2cc1OCC1(N)CC1", "test system": "paediatric refractory sarcoma patients", "setting": "8 mg", "endpoint": "grade 3 QTc prolongation", "value": "0%"}
{"SMILES": "CCN1[C@@H](C(=O)NC23CCC(C(=O)O)(CC2)CC3)[C@H](c2cccc(Cl)c2F)[C@]2(C(=O)Nc3cc(Cl)ccc32)C12CCCCC2", "test system": "patients with advanced solid tumours", "setting": "oral, 150 mg", "endpoint": "Tinnitus incidence", "value": "0%"}
